Results collected from several papers.
Each line is one published result; not all experiments were run side by side.

`Cl.Cl.NC1(c2ccc(-c3nc4ccn5c(=O)[nH]nc5c4cc3-c3ccccc3)cc2)CCC1` has a maximum inhibition of 0% (human coronavirus OC43; virus-induced cell killing; MRC-5; maximum over 10 doses).
`CC(=O)c1c(C)c2cnc(Nc3ccc(C4CCN(CCS(C)(=O)=O)CC4)cn3)nc2n(C2CCCC2)c1=O` — result for “patients with Anemia”: 4.9% (HR+/HER2- advanced breast cancer patients; oral, dose not given, grade 3/4,, total).
`COc1c(OCCCN2CCOCC2)ccc2c1N=C(NC(=O)c1cnc(N)nc1)N1CCN=C21` — result for “patients with adverse event”: 86% (item: Nausea; patients with advanced malignancies; intravenous, dose not given, any grade, all cohorts, with: gemcitabine).
Under “patients with adverse event”, `CCN(CCO)CCCC(C)Nc1ccnc2cc(Cl)ccc12` (stereo not shown) is recorded as 33% (item: Nausea grade 1; newly diagnosed glioblastoma patients; oral, 400 mg/dose, with radiotherapy and temozolomide).
Under “patients with adverse event”, `CN1CC[C@@H](c2c(O)cc(O)c3c(=O)cc(-c4ccc(C(F)(F)F)cc4Cl)oc23)[C@@H]1CO` is recorded as 100% (item: Dizziness; B-cell malignancies; oral, 200 mg, intermittent dosing).
`O=C1Nc2cc3[nH]nc(-c4ccncc4)c3cc2CN1Cc1ccccc1`: “patients with dizziness” 0% (CTCAE v4.03; advanced solid tumour patients; intravenous, 9.6 mg/kg, schedules 1/2).
`N[C@@H]1c2ccccc2OC12CCN(c1cnc3c(N4CCCc5ncccc54)n[nH]c3n1)CC2` — result for “patients with fatal TEAE”: 0% (advanced solid tumour patients; oral, 75 mg once daily).
`Nc1nc2cc(-c3ccc4ncc(C(=O)N5CCOCC5)n4c3)ccc2o1` — result for “patients with adverse events”: 4% (item: Diarrhea, any cause, grade ≥3; patients with advanced solid tumours; dose not given).
`Cc1cc(OCCOCCC(F)(F)P(=O)(O)O)ccc1CCc1cnc2c(N)nc3cc(CCC(=O)O)ccc3c2c1` — result for “patients with non-serious AE”: 4.8% (item: pruritus; adults with advanced solid tumours; dose not given, by treatment group, all grades).
`C[C@H](NC(=O)Cc1cc(F)cc(F)c1)C(=O)N[C@H](C(=O)OC(C)(C)C)c1ccccc1` has a maximum inhibition of 1.47% (human coronavirus OC43; virus-induced cell killing; MRC-5; maximum over 10 doses).
`CO[C@H]1C[C@@H]2CC[C@@H](C)[C@@](O)(O2)C(=O)C(=O)N2CCCC[C@H]2C(=O)O[C@H]([C@H](C)C[C@@H]2CC[C@@H](OC(=O)NCCOCCOCCOCCOCCOCCOCCOCCOCCC(=O)N3CCc4cc(Cn5nc(-c6ccc7oc(N)nc7c6)c6c(N)ncnc65)ccc4C3)[C@H](OC)C2)C[C@@H](O)[C@H](C)/C=C(\C)[C@@H](O)[C@@H](OC)C(=O)[C@H](C)C[C@H](C)/C=C/C=C/C=C/1C` — result for “patients with AE”: 4% (item: grade ≥3 treatment-related rash; patients with advanced solid tumours; intravenous, dose not given, all patients, weekly).
`C=CCNc1c(O)cc2c(O)c1C[C@@H](C)C[C@H](OC)[C@H](O)[C@@H](C)/C=C(\C)[C@H](OC(N)=O)[C@@H](OC)/C=C\C=C(/C)C(=O)N2` — result for “patients with fatigue TEAE”: 83% (unresectable or metastatic STS, GIST, other; intravenous, 90 mg/m^2).
Under “patients with AST increased”, `C[C@@H]1OC(=O)NN=C1c1ccc(-c2ccc(F)cc2)c(C(F)(F)F)c1` is recorded as 20% (patients, phase I trial; oral, dose not given, all arms, any grade TEAE).

Some of these lines once more:
`CC(=O)c1c(C)c2cnc(Nc3ccc(C4CCN(CCS(C)(=O)=O)CC4)cn3)nc2n(C2CCCC2)c1=O` — result for “patients with Anemia”: 4.9% (HR+/HER2- advanced breast cancer patients; oral, dose not given, grade 3/4,, total).
